Measured values of several laboratories.
Several values in a cell are separate wells, animals, samples, runs or records. ± marks the error that the study gave. Values after ≈ are worked out from the molar mass of the structure shown.
Sequence of UniProt Q92731 (whole entry, looked up): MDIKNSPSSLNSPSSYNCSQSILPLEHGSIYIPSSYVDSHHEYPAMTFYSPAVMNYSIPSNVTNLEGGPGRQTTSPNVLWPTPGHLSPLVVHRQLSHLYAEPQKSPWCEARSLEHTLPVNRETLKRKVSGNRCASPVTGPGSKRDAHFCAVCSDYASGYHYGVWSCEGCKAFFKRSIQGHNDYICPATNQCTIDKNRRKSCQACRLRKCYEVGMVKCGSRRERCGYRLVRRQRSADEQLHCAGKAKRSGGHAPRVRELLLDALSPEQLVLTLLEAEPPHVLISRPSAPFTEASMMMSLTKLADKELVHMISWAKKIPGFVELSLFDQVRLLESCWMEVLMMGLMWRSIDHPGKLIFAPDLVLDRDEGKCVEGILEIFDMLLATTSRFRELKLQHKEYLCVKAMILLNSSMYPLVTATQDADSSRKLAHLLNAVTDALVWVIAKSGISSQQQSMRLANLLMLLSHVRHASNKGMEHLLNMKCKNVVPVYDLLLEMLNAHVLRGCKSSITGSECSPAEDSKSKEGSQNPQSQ

Structure (SMILES) | target or system | assay | test system | setting | how to read | quantity | value
N#Cc1ccc2c(c1)[C@H]1CCCN(C(=O)c3ccc4[nH]cnc4c3)[C@H]1C2 |  |  | human | 40 mg, day 15 |  | mean ACTH level | 8.6 pmol/L
CN1CCC[C@H](CN2c3ccccc3Sc3ccccc32)C1.Cl |  |  | female Wistar rats, plasma | oral, 16 mg/kg single dose |  | Cmax | 421 ng/mL
COc1cc2nccc(Oc3ccc(NC(=O)c4cc5c(n(-c6ccccc6)c4=O)CCCC5=O)nc3)c2cc1OC |  |  | human, relapsed/refractory AML | oral, dose not given, CTCAE, all doses combined |  | patients with TEAEs grade ≥3 | 95%
CCn1cc(C(=O)N2CCOCC2)c(=O)c2cc(NC3Cc4ccccc4C3)cnc21 |  |  | human, fasted | oral suspension, 50 mg single dose, arithmetic mean |  | AUC(0-inf) | 1440 ng·h/mL
CCCCOC(=O)N1CCN(C(=O)[C@H](CP(=O)(O)O)NC(=O)c2cc(N3CC[C@H](OC)C3)nc(-c3ccccc3)n2)CC1 |  |  | human | subcutaneous, 16 mg, 1 h post-dose | relative to: baseline | change in QT interval | 11.9 ± 16.1 ms
CCCc1ccc(-c2ccc(-c3cc(F)c(F)c(F)c3)c(F)c2)cc1 |  |  | rat, placenta | 10 ng/mL in perfusate, low dose, mixture of 21 LCMs |  | median placental accumulation | 0.86 ng/g
C=CC(=O)Nc1cc(Nc2nccc(-c3cn(C)c4ccccc34)n2)c(OC)cc1N(C)CCN(C)C |  | storage stability | human dried blood spots | 72 h, on ice, low QC level |  | recovery | 70%
C[C@@H](O)[C@@H](CO)NC(=O)[C@@H](CCCNC(=N)N)NC(=O)[C@@H]1CCCN1C(=O)[C@@H]1CSSC[C@H](NC(=O)[C@H](Cc2ccccc2)NC(=O)CN2CCN(CC(=O)O)CCN(CC(=O)O)CCN(CC(=O)O)CC2)C(=O)N[C@@H](Cc2ccc(O)cc2)C(=O)N[C@@H](Cc2ccccc2)C(=O)N[C@@H](CCC(N)=O)C(=O)N[C@@H](CC(N)=O)C(=O)N1 [gallium-68 labelled] |  |  | normal saline | 3 h, room temperature |  | radiochemical purity | > 99%
COc1c(O)cc(C(=O)O)cc1O |  |  | broiler chickens, serum | oral, in feed, 2000 mg/kg feed, wheat diet with tannins |  | AUC | 0.64 ± 0.27 µM·h
O=C(N[C@H](Cc1c[nH]c2ccccc12)C(=O)Nc1ccncc1)c1ccc(-c2ccc(F)c(Cl)c2)cc1F |  |  | Swiss Webster mouse, female, lung | oral, 50 mg/kg, 2 h, 20% HPβCD vehicle |  | concentration | 9.62 µM
Cl.[2H]C([2H])([2H])CC(=O)c1cnc(NC(=O)C2CC2)cc1Nc1cccc(-c2ncn(C([2H])([2H])[2H])n2)c1OC |  |  | human, fasted, multiple dose | oral, 40 mg twice daily, tablet, day 14, geometric mean |  | CL/F | 12.3 L/h
COc1nc(C)nc(Cl)c1NC1=NCCN1 | Nedd8-cullin1 interaction | neddylation, AlphaScreen |  | 100 µM |  | inhibition | 15.2%
C=CC(=O)N1CCC[C@@H](n2nc(-c3ccc(Oc4ccccc4)cc3)c3c(N)ncnc32)C1 |  |  |  |  |  | bulk density | 0.59 g/mL
CC(C)=CCC/C(C)=C/C(=O)O.Cc1cc(/C=C/C#N)cc(C)c1Nc1ccnc(Nc2ccc(C#N)cc2)n1 |  |  | Peceol |  |  | kinetic solubility | < 50000 µg/mL
O=c1cc(-c2ccc(O)cc2)oc2cc(O)c([C@@H]3O[C@H](CO)[C@@H](O)[C@H](O)[C@H]3O)c(O)c12 | Estrogen receptor beta (ESR2, Homo sapiens, UniProt Q92731) | array formation, agonist | GFP-ERβ PRL-HeLa | 1 h |  | EC50 | 1560 nM
Cc1ccc([C@@H]2O[C@H](CO)[C@@H](O)[C@H](O)[C@H]2O)cc1Cc1ccc(-c2ccc(F)cc2)s1 |  |  | Japanese type 2 diabetes patients | 400 mg, day 3, 24 h urine collection | relative to: baseline | urinary potassium excretion change | -3.38 mEq
COCCOc1cnc2ccn([C@H](C)c3nnc4c(F)cc(-c5cnn(C)c5)cn34)c(=O)c2c1 |  |  | patients, plasma | oral, 150 mg twice daily, day 1, 300 per day |  | Cmax | 3040 ng/mL
CNC(=O)c1ccc(-c2cnc3ncc(Cc4ccc5ncccc5c4)n3n2)cc1F |  | phase 1 clinical trial, refers to: blood bilirubin increased | gastric cancer expansion cohort | oral, 600 mg twice daily, grade 3 or 4 |  | adverse event incidence | 11%
O=C1NCCc2nc(OCc3cccc(F)c3)ccc21 |  | refers to: Convulsions | Sprague-Dawley rat, male | oral, 100 mg/kg, 1 h, score 0 none to 2 full | direction not given | Irwin test score | 0
CCc1cc(C(=O)NC)c2nccc(N3CCc4c(cc(Cn5ccnc5)cc4-c4cn(C)nc4C(F)(F)F)C3=O)c2c1 |  |  | Sprague-Dawley rats, male, bile duct-cannulated, plasma | oral, 50 mg/kg |  | AUC(0-inf) | 94800 ng·h/mL
COc1cc([C@@H]2Oc3ccc([C@H]4Oc5cc(O)cc(O)c5C(=O)[C@@H]4O)cc3O[C@H]2CO)ccc1O |  |  | FVB wild-type mice, plasma | oral gavage, 500 mg/kg silymarin, geometric mean |  | AUC(0-4h) | 0.14 µM·h
CCOC(=O)C1=C(C)NC(C)=C(C(=O)OC)C1c1cccc([N+](=O)[O-])c1 (centres unmarked) | Nedd8-cullin1 interaction | neddylation, AlphaScreen |  | 100 µM |  | inhibition | 22.2%
O=C1CCc2ccc(OCCCCN3CCN(c4cccc(Cl)c4Cl)CC3)cc2N1 |  |  | CYP2D6 normal metabolizers | concentration not given, genotype-based phenotype, long-acting oral or depot |  | extrapyramidal symptom frequency | 7.3%
O=C(Nc1nc2cccc(-c3ccc(CN4CCS(=O)(=O)CC4)cc3)n2n1)C1CC1 |  | refers to: dyspepsia | human rheumatoid arthritis patients | oral, 200 mg once daily, 4 weeks, regardless of relatedness |  | treatment-emergent adverse events | 0%

Structure (SMILES) | target or system | assay | test system | setting | how to read | quantity | value
C[C@@H]1COCCN1c1cc(C2([S@](C)(=N)=O)CC2)nc(-c2cc[nH]c3nccc2-3)n1 |  |  | Japanese advanced solid tumour patients | oral, 160 mg twice daily, CTCAE grade ≥3 |  | Paronychia incidence | 0%
COc1ccc([C@@H](O)c2cc(-c3ncnc4cc(N5CCOCC5)ccc34)c(F)cc2Cl)nn1 |  |  | locally advanced rectal cancer patients | 250 mg, added: capecitabine and radiotherapy |  | drug-related proctitis incidence | 67%
c1csc(CNc2cc[nH]n2)c1 |  | alkaline comet | Hsd:ICR(CD-1) mice, female, liver | oral, 250 mg/kg/day, 3 days |  | tail DNA | 5.13%
Cn1cc(Nc2nccc(-c3ccc4c(c3)CN(C3COC3)CC[C@H]4NC(=O)c3cn(C(C)(C)C)nn3)n2)cn1 |  |  | human, whole blood | 50 mg twice daily, day 14 | relative to: pre-dose baseline | NKT cell count change | 12.7%
CCCCOc1ccc([C@H]2CC[C@H](CCC)CC2)c(F)c1F |  |  | rat, fetus | 5000 ng/mL in perfusate, high dose, mixture of 21 LCMs |  | median fetal accumulation | 1.26 ng/g
CCCOc1ccc(NC(=O)CN2CCN(C)CC2)cc1-c1nc(CC)c(CC)c(=O)[nH]1 |  |  | healthy Chinese men | 10 mg, supine or semi-supine, added: placebo |  | AUEC(0-4 h) diastolic BP | -14.6 ± 15.9 h·mmHg
COc1ncc(-c2nc3c(n2C(C)C)[C@H](c2ccc(Cl)cc2)N(c2cc(Cl)cn(C)c2=O)C3=O)c(OC)n1 |  |  | human patients, plasma | oral, 400 mg, high-dose arm, cycle 2 day 1 |  | median half-life | 40.1 h
C[C@@H]1CN(Cc2ncccn2)C[C@H]1c1nc2c(cnn2C2CCOCC2)c(=O)[nH]1 |  |  | mouse, plasma | intravenous, 0.3 mg/kg |  | mean residence time | 0.6 h
CN(CCCN1CCN(C(=O)CN2CCN(CC(=O)[O-])CCN(CC(=O)[O-])CCN(CC(=O)[O-])CC2)CC1)c1ccc2nccc(C(=O)NCC(=O)N3CC(F)(F)C[C@H]3C#N)c2c1.[68Ga+3] |  |  | mouse HT-1080-hFAP and HT-1080 xenografts, femur | intravenous, 500 pmol, 4 h |  | uptake | 0.5 ± 0.1 %IA/g
CC(C)c1nc(N(C)S(C)(=O)=O)nc(-c2ccc(F)cc2)c1/C=C/[C@@H](O)C[C@@H](O)CC(=O)O |  |  | human | oral, 10 mg, compound alone |  | participants with TRAE dizziness | 0%
Cc1nc2cccc(OCC(C)(C)C(=O)NC(C)C)c2c(N)c1C(=O)O |  |  | male Swiss albino CD-1 mouse, bone marrow | oral, 2000 mg/kg, 24 h |  | micronucleated PCE per 14000 PCE | 5
CCc1c(-c2ccccc2)c(-c2ccccc2)nn1-c1ccccc1-c1cccc(OCC(=O)O)c1 |  |  | male Sprague-Dawley rat, testis | oral, 10 mg/kg, 4 h |  | concentration | 357 ng/g
C1=C/COCc2cc(ccc2OCCN2CCCC2)Nc2nccc(n2)-c2cccc(c2)COC/1 |  |  | rat plasma | 600 ng/mL, 4 h, room temperature | relative to: nominal concentration | stability relative error | 1.25%
COc1cc(Nc2ncc3c(n2)-c2ccc(Cl)cc2C(c2c(F)cccc2OC)=NC3)ccc1C(=O)O |  | refers to: Constipation, all grades | cancer patients, phase 1/2 | oral, dose not given, added: pembrolizumab |  | patients with adverse event | 17%
CC[C@H](C)[C@H](NC(=O)[C@H](C)NC(=O)[C@H](CCCNC(=N)N)NC(=O)[C@H](CCCCN)NC(=O)[C@H](Cc1c[nH]c2ccccc12)NC(C)=O)C(=O)N[C@@H](CC(C)C)C(=O)N[C@@H](CCCNC(=N)N)C(=O)N[C@@H](C)C(=O)N[C@@H](CC(C)C)C(=O)N[C@@H](CC(C)C)C(=O)N[C@@H](CCC(N)=O)C(=O)N[C@@H](CCC(=O)O)C(N)=O |  | circular dichroism | 10 mM phosphate buffer | pH 7.4, 20 °C |  | helicity | 17%
Cc1cc(C)c(CNC(=O)c2cc(Cl)c3c(c2C)O[C@@](C)([C@H]2CC[C@H](N(C)C)CC2)O3)c(=O)[nH]1 |  |  | relapsed/refractory NHL patients | oral, 200 mg once daily, onset after cycle 1 day 1 |  | grade ≥3 adverse event Diarrhea | 4.2%
CC(C)(C)n1ncc(OCc2ccc(COCC[18F])cc2)c(Cl)c1=O |  | dynamic PET | healthy C57BL/6J mice, myocardium | intravenous, isoflurane anaesthesia |  | time to maximum uptake | 6.5 min
Fc1cccc(F)c1-c1nc(N2CCC(c3ccccn3)C2)c2ccccc2n1 (centres unmarked) |  |  | Japanese Pharmacopoeia disintegration test solution 2 | pH 6.8 |  | kinetic solubility | 9 µg/mL (≈ 23.2 µM)
O=C1c2ccccc2C(=O)N1CCCc1nc(-c2cccc([N+](=O)[O-])c2)no1 |  |  | aqueous buffer | pH 7.4 |  | thermodynamic solubility | < 5.36 µM
Cc1ccc(Sc2ccccc2N2CCNCC2)c(C)c1 |  | refers to: hot flush | healthy adult men | oral, 20 mg daily, 12 days |  | participants with TEAE | 0%
CCO[C@H]1CCN(Cc2c(OC)cc(C)c3[nH]ccc23)[C@H](c2ccc(C(=O)O)cc2)C1 |  |  | human mild hepatic impairment, plasma | oral, 200 mg single dose, geometric mean |  | total AUC(0-inf) | 52200 ng·h/mL
O=C(O)CSc1nnc(Br)n1-c1ccc(C2CC2)c2ccccc12 |  |  | KM mouse, chronic hyperuricaemia model | dose not given, day 3 |  | body weight | 27.8 g and 25 g and 23.6 g and 30.2 g and 28.1 g and 26.9 g
COC(=O)c1ccc2c(c1)NC(=O)/C2=C(\Nc1ccc(N(C)C(=O)CN2CCN(C)CC2)cc1)c1ccccc1 |  |  | healthy volunteers, plasma | oral, 150 mg, added: pirfenidone |  | AUCinf | 230 ng·h/mL

For quick reference, copied from above:
Structure (SMILES) | target or system | assay | test system | setting | how to read | quantity | value
O=C(O)CSc1nnc(Br)n1-c1ccc(C2CC2)c2ccccc12 |  |  | KM mouse, chronic hyperuricaemia model | dose not given, day 3 |  | body weight | 27.8 g and 25 g and 23.6 g and 30.2 g and 28.1 g and 26.9 g
Cc1cc(C)c(CNC(=O)c2cc(Cl)c3c(c2C)O[C@@](C)([C@H]2CC[C@H](N(C)C)CC2)O3)c(=O)[nH]1 |  |  | relapsed/refractory NHL patients | oral, 200 mg once daily, onset after cycle 1 day 1 |  | grade ≥3 adverse event Diarrhea | 4.2%
